Assay results of several laboratories.
A part holds a random share of what one study measured. Substitutions count along the parent as printed.

Series 1 — target: CCNF, cyclin fold, Cln2 fusion (human); technique: yeast growth competition, sequencing; sample: yeast; notes: strong parent motif; reference: not given; reading: higher = stronger binding
Starting sequence: USP37 docking peptide (human); PSAKRSLGFLPQP
For `R5A`, “normalised enrichment score” read 0.0143.
`K4A` — result for “normalised enrichment score”: 1.86.
`S6A` — result for “normalised enrichment score”: 4.6.
Under “normalised enrichment score”, `F9A` is recorded as -0.102.
For `L7A`, “normalised enrichment score” read 0.531.
`P13A` — result for “normalised enrichment score”: 3.24.

Series 2 — technique: universal PBM; molecule type: double-stranded DNA, one strand shown; sample: in vitro; concentration: not given; reading: higher = stronger binding
Target: Sal-like protein 4, full length isoform B (SALL4, Homo sapiens, UniProt Q9UJQ4-2, residues 1-616)
Notes: 8-mer, flanks averaged, mean of replicates
With `AGGGGTGA` the E-score was -0.161.
`CACGGTTA` has an E-score of 0.139.
`AATCTAAC` gave an E-score of 0.137.
With `CTTAAGGC` the E-score was -0.174.
`CACTTCTG` has an E-score of -0.0915.
For `AGGGGATG`, the E-score was -0.132.
The E-score of `CTGAATAA` is reported as 0.178.
For `ATAAGTAA`, the E-score was 0.366.
With `CTCCCGCC` the E-score was -0.239.
`AAATTTAA` has an E-score of 0.341.
`CTCGACAC` gave an E-score of -0.194.
`CTAACAGA` has an E-score of -0.00546.
`CTCGCTCA` has an E-score of -0.0659.
`CCACTAAG` has an E-score of -0.162.
`CCAATCCC` has an E-score of -0.161.
The E-score of `AGATACCA` is reported as 0.0683.
The E-score of `ACCTTTAC` is reported as 0.136.
With `ATCTATGC` the E-score was 0.115.
With `CACATCAA` the E-score was 0.00117.
The E-score of `TACACTCA` is reported as 0.172.
`AACAAACC` has an E-score of 0.0574.
With `ATCTATTA` the E-score was 0.309.
With `ACTTCGAC` the E-score was 0.0419.
With `CATAAAGC` the E-score was 0.0881.
For `TCCCTACA`, the E-score was 0.158.

Series 3 — technique: aptamer microarray, sandwich; molecule type: DNA with 2'F-ANA; sample: in vitro; concentration: 200 nM; with: Cy3 exosite-II aptamer, 400 nM; reading: higher = stronger binding; strand: GGTTGGTGTGGTTGG
Target: Prothrombin, mature alpha-thrombin (F2, Homo sapiens, UniProt P00734)
Notes: whole 15-mer aptamer, many near background
Under “mean fluorescence intensity”, `2'F-ANA at 5 8 9 10 12 13` is recorded as 48.5 a.u.
`2'F-ANA at 1 4 7` — result for “mean fluorescence intensity”: 148 a.u.
Under “mean fluorescence intensity”, `2'F-ANA at 3 5 9 10 11` is recorded as 54.6 a.u.
`2'F-ANA at 1 2 5 6 8 15` — result for “mean fluorescence intensity”: 65.9 a.u.
`2'F-ANA at 1 6 8 9 12` — result for “mean fluorescence intensity”: 395 a.u.
`2'F-ANA at 1 2 4 7 8 9 10 11 13 14` — result for “mean fluorescence intensity”: 43.8 a.u.
`2'F-ANA at 6 7 9 11 13 14`: “mean fluorescence intensity” 150 a.u.
`2'F-ANA at 2 4 5 8 12 14 15` — result for “mean fluorescence intensity”: 46.7 a.u.
`2'F-ANA at 1 2 4 5 6 9 10 12 13 14 15` — result for “mean fluorescence intensity”: 50.9 a.u.
`2'F-ANA at 1 2 3 4 9 11 12 13`: “mean fluorescence intensity” 192 a.u.
`2'F-ANA at 2 3 4 7 10 11 12 15`: “mean fluorescence intensity” 344 a.u.
`2'F-ANA at 1 2 4 6 12 13 15` — result for “mean fluorescence intensity”: 170 a.u.
`2'F-ANA at 6 10 12 14`: “mean fluorescence intensity” 107 a.u.
Under “mean fluorescence intensity”, `2'F-ANA at 6 7 9 11 12 13 14 15` is recorded as 163 a.u.
`2'F-ANA at 2 4 5 6 8 9 10 11 13 14`: “mean fluorescence intensity” 66.1 a.u.
For `2'F-ANA at 2 7 10`, “mean fluorescence intensity” read 153 a.u.
Under “mean fluorescence intensity”, `2'F-ANA at 1 2 3 5 8 10 11 13 14` is recorded as 45.3 a.u.
`2'F-ANA at 1 2 3 4 6 7 9`: “mean fluorescence intensity” 132 a.u.
For `2'F-ANA at 2 5 12 13 14`, “mean fluorescence intensity” read 47.5 a.u.
Under “mean fluorescence intensity”, `2'F-ANA at 1 2 3 5 7 8 9 11 12 14 15` is recorded as 47.4 a.u.
`2'F-ANA at 1 2 5 6 10 13`: “mean fluorescence intensity” 50.5 a.u.
For `2'F-ANA at 1 3 8 9 11 13 14 15`, “mean fluorescence intensity” read 146 a.u.
`2'F-ANA at 1 2 3 5 6 7 8 9 13 14 15` — result for “mean fluorescence intensity”: 54.4 a.u.
`2'F-ANA at 7 9 13 14 15` — result for “mean fluorescence intensity”: 192 a.u.
Under “mean fluorescence intensity”, `2'F-ANA at 5 12 13 14 15` is recorded as 48.3 a.u.

Series 4 — technique: RNA Bind-n-Seq; molecule type: RNA; sample: in vitro; concentration: not given; reference: input RNA pool; reading: higher = stronger binding
Target: RING finger protein unkempt homolog, zinc fingers 1-6, GST-SBP tag (UNK, Homo sapiens, UniProt Q9C0B0, residues 30-357)
Sequence of UniProt Q9C0B0 (30-357, looked up): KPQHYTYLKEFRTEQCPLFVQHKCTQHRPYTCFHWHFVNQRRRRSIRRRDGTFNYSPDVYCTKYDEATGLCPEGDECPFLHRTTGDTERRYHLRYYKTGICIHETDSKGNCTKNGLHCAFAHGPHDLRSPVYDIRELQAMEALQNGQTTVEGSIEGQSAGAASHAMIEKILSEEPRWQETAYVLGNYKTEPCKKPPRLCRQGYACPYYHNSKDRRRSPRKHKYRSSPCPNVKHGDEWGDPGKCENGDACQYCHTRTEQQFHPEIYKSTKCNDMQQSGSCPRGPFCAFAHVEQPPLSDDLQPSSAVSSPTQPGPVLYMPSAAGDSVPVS
Notes: RNA with constant flanks, human-mouse chimeric sites, ends assumed
`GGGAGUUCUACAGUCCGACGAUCACCUCCCCCUCCCGCCUCACCCCACCCCCGCUUUUUGGAAAGUUUUUGGCGUUUCUUUUCCUUCCCCAGUUAGAAUUAUUACAGUUUCCCCCGCAAGGGUCUAUCGAUUCACCCUUCGGACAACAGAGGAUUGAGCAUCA` has a bound/input enrichment of 19.5 ratio.
For `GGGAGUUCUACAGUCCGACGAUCUAUAUCACCAAUGUCCUACAAAAUCCUGACUUGGCUCUGAGAAUGGCUGUACGUAAUAACUUAGCUGGUGCUGAAGAACUCUUUGCCCGGAAAUUUAAUGCUCUCUUCGCCCAGGGAAACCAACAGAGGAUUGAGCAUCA`, the bound/input enrichment was 0.557 ratio.
The bound/input enrichment of `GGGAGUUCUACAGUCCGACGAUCUUACCCGAGAACGAGGAUGAGCUGGAGAGCACCAACAGGCGCUACACCAAGAGGGACUGCAGCACUUUCCUCAGAACUAGUGAGACGGGCAUUGUGGAUCAGGUUAUGGUCACUCUCAACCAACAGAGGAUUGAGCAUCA` is reported as 0.13 ratio.
`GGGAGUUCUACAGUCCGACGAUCUAAGUUAUUUUGUACAGUAAGUUAUUUUCUUAACAUUAAUUUGUAAACAUGUUUAUUUUGUUUGGGUAAUUUGGUUCAUUAAGUACAUAGCUAAGGUAAUGAACAUCUUUUUCAGUAAUUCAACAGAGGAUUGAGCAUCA` has a bound/input enrichment of 0.775 ratio.
`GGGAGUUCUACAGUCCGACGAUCUUCAAAGAAAAGGGCAGUUCAUAAAUAUCAUAAGUAACUCUGGGGGAGGGAAAUUCUGUUCUUUUGUUUAAUUUUCCCCCAAAUGAAGCCAAAGUGUGUGUUGAAGAAGGAAGAAUGAAUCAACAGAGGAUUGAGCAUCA` gave a bound/input enrichment of 0.343 ratio.
The bound/input enrichment of `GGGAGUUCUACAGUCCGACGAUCAGCACAACCCCAGCAAAGCUAAGAAAUCCUUGCACAAGUGAACAAAACUGCACCAGCCCAUUUAGCUACAAAAAUGUGCUUAGUCUUACUGACAGAGGAGAAGUAUUCAAUGAACUUGUUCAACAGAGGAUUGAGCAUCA` is reported as 0.695 ratio.
`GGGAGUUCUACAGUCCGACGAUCUUGUCGAAGACUCAACGAAAGACUCCAACCGUUAUUCAUAAACAUUAUCAAAUUCAUCGGAUUCGACAUUUUUAUAUGAGAAAAGUCAAAUUUACUCAACAGAAUUACCAUGACAGACUGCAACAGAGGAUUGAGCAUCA` has a bound/input enrichment of 0.497 ratio.
`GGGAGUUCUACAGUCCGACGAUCCAGUCCCCGUGUCCCAGUGCAGGACGAUGUGAACAAAAACUCAAAGCGGCCCUUUCUUUGUAGUUCUUUUUUUAAAUAAUGUGCUAUUAUUGUUUGUCUUUUUUUUUUUUUUUUUAAAGACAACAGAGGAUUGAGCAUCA` gave a bound/input enrichment of 6.79 ratio.
`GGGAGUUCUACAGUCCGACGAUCAGAGCCCAGGAUGUUGAUGCUACAAAUCCAAAUUACGAAAUUAUGUGUAUGAUCAGAGACUUCAGAGGGAGCUUGGAUUACAGACCCUUAACAACAGCAGAUCCUAUUGAUGAACAUAGGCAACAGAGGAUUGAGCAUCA` gave a bound/input enrichment of 0.446 ratio.
`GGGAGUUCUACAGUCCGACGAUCGGCCUGGGACCGUCCUGGGCUAGUACAAAUAGCGGCAGUGGAGGCUCGAGAGGAAAGUUUGUUAGUGGAGGCAGUGGUAGAGGCCGUCAUGUACGGUCUUUACACGAUAAAAAUCCUUCUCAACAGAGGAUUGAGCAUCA` has a bound/input enrichment of 0.245 ratio.
`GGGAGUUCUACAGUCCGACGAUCGCUCCUCCCCGCUCUGCCCCUGCCUGCCACUGGGCUGGGACCAGAAUCCAGCUUUCUUUUAAUAGUGUCAGUGUAACUGUAUCCCGUGACAUUUCAUUUUUUUUAAAUAGUGUAUUUUUUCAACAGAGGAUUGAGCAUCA` has a bound/input enrichment of 7.75 ratio.

Series 5 — technique: DHFR PCA, deep sequencing; sample: yeast; with: (+)-ABA 200 µM; reference: wild-type fitted maximum; reading: higher = stronger binding
Target: ABI1, truncated, D143A, DHFR fusion (Arabidopsis thaliana)
Notes: methotrexate growth selection, single substitutions
Starting sequence: PYL1, truncated, DHFR fusion (Arabidopsis thaliana); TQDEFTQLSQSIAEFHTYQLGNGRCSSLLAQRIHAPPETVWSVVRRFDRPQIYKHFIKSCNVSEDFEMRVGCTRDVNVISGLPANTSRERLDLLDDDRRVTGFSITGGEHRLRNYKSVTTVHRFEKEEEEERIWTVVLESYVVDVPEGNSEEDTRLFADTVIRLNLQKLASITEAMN
For `V44P`, “relative binding score” read -3.55%.
Under “relative binding score”, `I33L` is recorded as 44.4%.
Under “relative binding score”, `N22L` is recorded as 101%.
For `H110G`, “relative binding score” read 50.9%.
`T135K` — result for “relative binding score”: -4.41%.
`A30G`: “relative binding score” 94.1%.
Under “relative binding score”, `K116W` is recorded as -4.49%.
For `S27V`, “relative binding score” read 7.9%.
`N22Y` — result for “relative binding score”: 101%.
For `S11V`, “relative binding score” read 102%.
For `D144L`, “relative binding score” read 52.1%.
Under “relative binding score”, `E14N` is recorded as 91.6%.
`I133H`: “relative binding score” 107%.
`S42D`: “relative binding score” 97.5%.
For `E125T`, “relative binding score” read 102%.
`N61E` — result for “relative binding score”: 107%.

Excerpt of the above (series 5):
Under “relative binding score”, `I33L` is recorded as 44.4%.
Under “relative binding score”, `N22L` is recorded as 101%.
For `H110G`, “relative binding score” read 50.9%.
`T135K` — result for “relative binding score”: -4.41%.
`A30G`: “relative binding score” 94.1%.
Under “relative binding score”, `K116W` is recorded as -4.49%.
For `S27V`, “relative binding score” read 7.9%.
`N22Y` — result for “relative binding score”: 101%.
For `S11V`, “relative binding score” read 102%.
For `D144L`, “relative binding score” read 52.1%.
Under “relative binding score”, `E14N` is recorded as 91.6%.
